Results gathered from unrelated publications.
Every numbered part comes from another study and shows a few of its results, in no order. Positions count from the first letter of the parent shown.

Set 1 — method: universal PBM; form: double-stranded DNA, one strand shown; sample: in vitro; concentration: 600 nM; reading: higher = stronger binding
Target: Sal-like protein 4, full length isoform A (SALL4, Homo sapiens, UniProt Q9UJQ4, residues 1-1053)
Chain of UniProt Q9UJQ4 (whole entry, looked up): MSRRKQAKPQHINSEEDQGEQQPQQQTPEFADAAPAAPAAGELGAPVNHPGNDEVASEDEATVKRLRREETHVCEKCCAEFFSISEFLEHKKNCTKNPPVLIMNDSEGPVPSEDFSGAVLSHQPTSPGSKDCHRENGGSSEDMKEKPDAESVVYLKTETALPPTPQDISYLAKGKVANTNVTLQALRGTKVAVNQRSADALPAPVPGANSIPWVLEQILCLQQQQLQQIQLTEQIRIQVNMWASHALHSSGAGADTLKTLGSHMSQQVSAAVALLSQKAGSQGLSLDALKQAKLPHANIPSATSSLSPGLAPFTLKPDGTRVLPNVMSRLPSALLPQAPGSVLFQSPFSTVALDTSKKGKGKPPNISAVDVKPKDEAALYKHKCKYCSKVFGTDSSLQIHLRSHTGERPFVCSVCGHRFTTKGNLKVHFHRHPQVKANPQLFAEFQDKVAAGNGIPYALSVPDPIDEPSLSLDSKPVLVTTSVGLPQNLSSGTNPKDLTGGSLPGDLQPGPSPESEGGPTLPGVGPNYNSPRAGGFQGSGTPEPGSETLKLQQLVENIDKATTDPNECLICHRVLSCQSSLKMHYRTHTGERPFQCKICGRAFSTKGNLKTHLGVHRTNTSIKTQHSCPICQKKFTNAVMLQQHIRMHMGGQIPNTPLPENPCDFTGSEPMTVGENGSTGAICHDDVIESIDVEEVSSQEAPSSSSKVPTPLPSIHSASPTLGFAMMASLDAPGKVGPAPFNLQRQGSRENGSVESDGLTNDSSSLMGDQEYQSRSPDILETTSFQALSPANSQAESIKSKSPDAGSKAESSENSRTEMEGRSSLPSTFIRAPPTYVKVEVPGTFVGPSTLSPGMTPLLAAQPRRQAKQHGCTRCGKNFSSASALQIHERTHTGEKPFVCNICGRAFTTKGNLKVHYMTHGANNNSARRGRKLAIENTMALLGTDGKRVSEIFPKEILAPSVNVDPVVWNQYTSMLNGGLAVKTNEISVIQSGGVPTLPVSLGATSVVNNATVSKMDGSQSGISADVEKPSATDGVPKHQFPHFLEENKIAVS
Notes: 8-mer, flanks averaged, mean of replicates
| Oligonucleotide | E-score |
| --- | --- |
| CATCAACA | 0.116 |
| GCTCAGTA | 0.0416 |
| GGTTGCTA | -0.0246 |
| AAGTACGA | 0.19 |
| CGTACCAG | -0.199 |
| ACCCCCTC | -0.275 |
| AACATTGT | 0.238 |
| AAGATCCC | -0.0766 |
| ATATGACC | 0.17 |
| AGGCGGGG | -0.176 |
| TGACAACA | 0.13 |
| ACTAGTAT | 0.194 |
| CCTTCACC | -0.191 |
| CTTTCAAA | 0.292 |
| ATAGTCTC | 0.149 |
| CCTCGCAG | -0.189 |
| TCGACCCA | -0.134 |
| ATGGTGAA | 0.00971 |
| AAAGCTCG | -0.141 |
| AAGTGGGG | -0.0992 |
| AATCGATT | 0.187 |
| AGATTCGA | -0.046 |
| GAGGTCTA | -0.0967 |

Set 2 — method: RNA Bind-n-Seq; form: RNA; sample: in vitro; concentration: 365 nM; baseline: no-protein control; reading: higher = stronger binding
Target: RNA binding protein fox-1 homolog 2, RRM domain, GST-SBP tag (RBFOX2, Homo sapiens, UniProt O43251-10, residues 100-194)
Notes: natural RNA segment, single round, ends assumed
All sequences stand within: GGGAGUUCUACAGUCCGACGAUC … UGGAAUUCUCGGGUGCCAA
Residues (chain): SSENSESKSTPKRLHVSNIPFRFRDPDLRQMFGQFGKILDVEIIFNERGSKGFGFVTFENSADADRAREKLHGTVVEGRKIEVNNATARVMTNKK
| Oligonucleotide | RBNS enrichment (R) |
| --- | --- |
| CCUCAAUUCCAACACUGAUUUCCCCUUUUGCAUUCUCCCUCCUUCCCUUCCUUGUAGCCUUUUGACUUUCAUUGGAAAUUAGGAUGUAAAUCUGCUCAGGAGACCUGGAG | 0.33 |
| AAGUAGCUAGAGCCAUGGAAGUACAGUAUGAAUUAAAAAGAAAAAAGUAUUGAACUACAAUAAUAAAUGGUGUGCGUGUUUAUUGCUUGAUCUAUGAAUGCUCGUCACCU | 1.89 |
| UAGUUUGUUAAUAUGUAUAAUUUAGCAUCUAUUACACUCAUGUAAAUAUGGAGUAAGUAUUGUAAACUAUUUCAUCGCGGGGAUUGUGGGUGUUAUACAUACAUUUAGGA | 0.884 |
| AGGUGCUCACUGACUCGCUAAGACGACUUUGGCCCUGUUGAUGACUGGUGCUGUGCUCCAGCCUUAUCAGUUAGGGGACCCAAGGUUUGUUUGGGACCUGGGUACAGGUA | 0.374 |
| CAGGCUGGACCAAGGGUGGGCCUGGCCACCUUCUCUCACUUUGCUGGGGUCUCCUGCUUCAAGCAGGCUUCUCCCACUCCAAUCCCCUGCCCCAUCUCCCCAUAGCCUGA | 0.384 |
| AGGUCAUAUUUUAACUCUUUAUAGGAAAUGCCUUUAACACAAGUGACUGUAGGUGACUUUCUUGUGCAGUAUUGUGACUCCCAAGAGUGACUGUAGGAUGGUUUGAACGA | 1.98 |
| CCAGUGAUGGAUAACAGCUCCUAUUCUCAGCUGACCUGACUGAGCCAACCCAUGAACUCUUCACUCCUUGGGGAAGCCACCUCCCAUCACACCCCUGAGCAGAGUUAGGG | 0.535 |
| GUCUUUUCCUAUCCGAGAUUCUAGAGGAGGAAGACCUUGGGCUCCGACUACUUCAAAAUGAUCUGAAAAGUUAUCACACAAAAAGGGUCUACUGUAGGAUCUUACAUUCU | 0.275 |
| GCUGCACGAGCUCGGGCUGGACGAGCCGCUGAUGACACCACUGCGGGAGCGCUUCCUGCAGCCGCUGAUGGCCCUGCUGUACCCUGACUGUGGCGGGGGCCGGCUCGACA | 1.32 |
| UGGCAUCUGUACCCCACCUCACCCCCGAGAAGUGCUAUUGCUUGCCCUCUGCCUCAGCCCCACUAGGGGAACAACAGGAGGCCUGCUGGGGCUUAGAGUCCGUGCAGGUG | 0.339 |
| AAUGAGAGGAUAAUGAAUCUGAAUCAUAGCAGGAAUUUGCAAUAUUAAUUAUGGUUAGCUAUUUUUCUCUCAUUGAUUUUUGUGCCACUUGAAUGGAACAGAAGCAAGCC | 0.785 |
| GGGAAUCCAGGCCCAGCAAGAGACAUGCCAAUGGCGACUGUAGGUCCCUCCAUGUGUGCUGACUCCAGACAACCGACCUUCCAGUGUCCCAAAGUUCUUCCAUGUUUUUA | 0.702 |

Set 3 — method: protein binding microarray; form: double-stranded DNA, one strand shown; sample: in vitro; concentration: not given; baseline: not given; reading: higher = stronger binding
Target: Histone acetyltransferase KAT6A, winged helix 1, GST fusion (KAT6A, Homo sapiens, UniProt Q92794, residues 1-85)
Notes: 8-mer, flanks averaged, mean of 2 arrays, mostly near background
Target sequence (chain): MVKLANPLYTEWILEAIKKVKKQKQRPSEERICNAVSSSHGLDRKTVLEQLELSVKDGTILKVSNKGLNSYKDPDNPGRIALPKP
| Oligonucleotide | E-score |
| --- | --- |
| ACCTTCCT | 0.00756 |
| AGACAAAA | -0.2 |
| AATTCGAA | -0.201 |
| AGGAGGTC | -0.177 |
| CCCAACCC | -0.0911 |
| CGCTCATC | 0.157 |
| CGTCGCGC | 0.401 |
| ATCCCACA | -0.27 |
| ATCAAACG | 0.0948 |
| AACTTCGA | -0.186 |
| ACACATGT | 0.0177 |
| ACGTTAGC | 0.0843 |
| CCACCAGG | -0.167 |
| GGGAAGTA | -0.014 |
| AGATATCT | -0.329 |
| CAACGAAA | -0.137 |
| AGGACAAA | -0.238 |
| AGGGAGGG | -0.226 |
| GGAAAATA | -0.0744 |
| GACGTGAC | -0.0713 |
| GCCACACC | -0.0415 |
| CCGGGTAC | 0.314 |
| AAAATAGG | -0.143 |
| TTAGTAAA | -0.0946 |

Set 4 — method: protein-binding microarray; form: double-stranded DNA, one strand shown; sample: in vitro; concentration: not given; reading: higher = stronger binding
Target: Max-binding protein MNT, bHLH-zipper, MAX partner unstated (MNT, Homo sapiens, UniProt Q99583, residues 220-300)
Notes: k-mer, scored over probes, only values ≥0.25
Construct (chain): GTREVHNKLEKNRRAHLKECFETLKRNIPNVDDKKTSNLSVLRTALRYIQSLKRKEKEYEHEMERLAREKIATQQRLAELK
| Oligonucleotide | E-score |
| --- | --- |
| ACGCGCCA | 0.324 |
| ACGTTGAG | 0.298 |
| CCACGACC | 0.252 |
| AGACACGC | 0.412 |
| CGTGCGCA | 0.376 |
| CGTGACGC | 0.288 |
| ACACGAGA | 0.374 |
| CACGTGCA | 0.497 |
| CCCCCACG | 0.365 |
| CAATGTGC | 0.334 |
| AAGACACG | 0.295 |
| CACGAGTG | 0.382 |
| CGGCACGA | 0.364 |
| ACACGAGT | 0.396 |
| GTGCACGA | 0.348 |
| ACATGGAT | 0.3 |
| ACATGTAC | 0.355 |

Set 5 — target: CCNB3, cyclin fold, Cln2 fusion (human); method: yeast growth competition, sequencing; sample: yeast; notes: weak parent motif; baseline: not given; reading: higher = stronger binding
Parent: MICAL3 docking peptide (human); LQLRRQLSFSEDS; partner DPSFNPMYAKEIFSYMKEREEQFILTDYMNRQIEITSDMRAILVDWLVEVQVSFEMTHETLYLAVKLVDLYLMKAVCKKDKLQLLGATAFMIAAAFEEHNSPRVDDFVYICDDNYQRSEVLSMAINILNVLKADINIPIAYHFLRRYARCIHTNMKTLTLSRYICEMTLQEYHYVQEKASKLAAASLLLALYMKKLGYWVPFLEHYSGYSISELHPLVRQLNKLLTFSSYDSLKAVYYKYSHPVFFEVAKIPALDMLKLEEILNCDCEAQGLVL
| Substitution | normalised enrichment score |
| --- | --- |
| R5D | 0.0434 |
| E11L | 0.569 |
| R4T | -0.0715 |
| L7T | 0.0137 |
| Q2H | 0.264 |
| L3W | -0.0639 |
| L7D | -0.42 |
| S8Q | 0.149 |
| D12K | 0.366 |
| S10N | 0.147 |
| R4Q | -0.265 |
| R5Y | 0.394 |
| D12C | 0.224 |
| E11H | 0.132 |
| Q6L | 0.424 |
| Q2G | -0.0949 |
| S8A | -0.121 |
| E11N | 0.41 |
| D12T | 0.373 |
| Q2P | 0.382 |
| R5C | 0.0419 |
| L3E | -0.0704 |
| F9H | -0.154 |
| R5Q | -0.0606 |
| L3V | 0.746 |

Set 6 — method: RNA Bind-n-Seq; form: RNA; sample: in vitro; concentration: not given; baseline: input RNA pool; reading: higher = stronger binding
Target: RING finger protein unkempt homolog, zinc fingers 1-6, GST-SBP tag (UNK, Homo sapiens, UniProt Q9C0B0, residues 30-357)
Chain of UniProt Q9C0B0 (30-357, looked up): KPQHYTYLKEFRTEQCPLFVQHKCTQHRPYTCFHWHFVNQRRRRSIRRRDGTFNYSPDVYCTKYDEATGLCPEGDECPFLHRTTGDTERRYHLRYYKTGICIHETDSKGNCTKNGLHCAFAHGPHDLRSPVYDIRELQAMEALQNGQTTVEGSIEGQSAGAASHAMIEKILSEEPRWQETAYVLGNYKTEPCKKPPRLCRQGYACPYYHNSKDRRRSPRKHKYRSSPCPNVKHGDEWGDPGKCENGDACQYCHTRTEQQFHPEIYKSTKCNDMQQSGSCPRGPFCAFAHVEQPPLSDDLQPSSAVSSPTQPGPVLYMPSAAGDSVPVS
Notes: RNA with constant flanks, human and mouse sites, ends assumed
All sequences stand within: GGGAGUUCUACAGUCCGACGAUC … CAACAGAGGAUUGAGCAUCA
| Oligonucleotide | bound/input enrichment |
| --- | --- |
| GUUUUCUAUUCUCCCUCUACCUUAUCCCCCACCCCCACCCCACCCCACCCCUUUUUUAUUUAGUUUUAUUUACUUUACCUAGUAUGGCUUUUUUAGUUGCUUCUCAAGUCAGAAAACUUC | 3.85 ratio |
| UUUACCUGAAUUUGGAAAUGGGAUUUUGUCAACAAUGCAUUUAUAUUUGGGGACGAUAAAUGAACAUUACAGAGGGCCAUCAUAAAUAAAAUCAGGAUAGCAAUAUACCUUUUUAAAAGA | 0.955 ratio |
| UUUUCUUUUGGAGGCGGAUUGUUUGAUGAUAUGUUUGAAGACAUGGAGAAAAUGUUUUCUUUUAGUGGCUUUGAUACCACCAAUCGACACACAGUACAGACUGAAAAUAGAUUUCAUGGA | 0.203 ratio |
| GUUAAGAGCCCAGAGGUUCAAUUGCUUGGGCAUGUUGAAACUGAAGAUGUAGAAAUAAUUGCAACAUGUGAUACUUUUGGGAAUGAAGAUUUCAAUAAUAUUCAAGACUCUGAAAAUAAC | 0.241 ratio |
| AGGGUUGAUGUUCUGAAGAACCACUUGGUGAAAGAAGGUCGAGUAGAUGAAGAAAUUGCGCUUAGAAUUAUCAAUGAGGGUGCUGCCAUCCUUCGGAGAGAGAAAACCAUGAUAGAAGUA | 14.5 ratio |
| ACUGAAAAUAAAGAUAUUUACUGGAGAAACGUGAGAGAAAAGUUGUCAGUAGGAGAGAGCAUUAGUUUGGAUGAGUUCAAGUCCUUUUGCCAUUUUACAACGCAUUUGGAAGACUUUGCU | 0.683 ratio |
| GAGACGGUGGAGGAAGAGAAGAGCCAGUCAGAUGUGGAUUUUCAGUCGUGCGAGUCUUGUAGCAGCAGCGAGAAAGCAGAAAAUGAGAGUGGCUCCAAAGGCUUUCCUGAGGACAGCAAU | 0.31 ratio |
| CUGAAAUUCUCUCCAAUUAAAUAUGGCUACCAGCCUCGCAGGAAUUUUUGGCCAGCAAGAUUAGCUACGAGACUCUUAAAACUUCGCUAUCUCAUACUAGGAUCGGCUGUUGGGGGUGGC | 0.996 ratio |
| AGUCAGUUUGUCCCAGCUGAUCAGAAUUUGCCUCAGAAGUUCCUAAGUGAUGCUGUUCAGGAUCUUUUUCCAGGACAAGCUAUAGAAAAAAAUGAGUUUUUAAGUCAUGACAACCAGAAA | 0.7 ratio |
| UUGAAAGUGUUAUAUCAGUACAAGGAAAAACAAUAUAUGGCGCCUCGAGUUUUACAGCAGACAUUAAAUUAUAUUAAUCAAGGAGUUUCCCAUGCACUUACGUGGAAGAACCUGAAGCCC | 0.478 ratio |
| GAAUAAUGAAAAAUCUAGAUCAAUUCUUCAAUUUGAUUGAACUGUUCAGCCUUUUCAAGAUUUCUUUAUUUACAAAUGAUUACAUUUAAAUGAAUGUACAUUCUUCUCACUGACUUUGGU | 0.174 ratio |

Repeated from above (set 3):
| Oligonucleotide | E-score |
| --- | --- |
| CCCAACCC | -0.0911 |
| CGCTCATC | 0.157 |
| CGTCGCGC | 0.401 |
| ATCCCACA | -0.27 |
| ATCAAACG | 0.0948 |
| AACTTCGA | -0.186 |
| ACACATGT | 0.0177 |
| ACGTTAGC | 0.0843 |
| CCACCAGG | -0.167 |
| GGGAAGTA | -0.014 |
| AGATATCT | -0.329 |
